Published values gathered from unrelated publications.
Protocols differ between the studies behind these lines. ± marks the error that the study gave. Converted amounts (≈) assume the structure as drawn.
NOX4: NADPH oxidase 4 (NOX4, Homo sapiens, UniProt Q9NPH5)
CYBB: NADPH oxidase 2 (CYBB, Homo sapiens, UniProt P04839)
NOX5: NADPH oxidase 5 (NOX5, Homo sapiens, UniProt Q96PH1)
Neuronal acetylcholine receptor; alpha3/beta2: Neuronal acetylcholine receptor; alpha3/beta2 (Rattus norvegicus, UniProt P04757+P12390)
Salicylate synthetase, Irp9: Salicylate synthetase, Irp9 (Yersinia enterocolitica, UniProt Q9X9I8)
TRPA1: Transient receptor potential cation channel subfamily A member 1 (TRPA1, Homo sapiens, UniProt O75762)
ache: Acetylcholinesterase (ache, Electrophorus electricus, UniProt O42275)

Sequences of proteins named here, by UniProt entry; tags and fusion partners are left off. Residues count along the entry.
UniProt Q9NPH5, whole entry: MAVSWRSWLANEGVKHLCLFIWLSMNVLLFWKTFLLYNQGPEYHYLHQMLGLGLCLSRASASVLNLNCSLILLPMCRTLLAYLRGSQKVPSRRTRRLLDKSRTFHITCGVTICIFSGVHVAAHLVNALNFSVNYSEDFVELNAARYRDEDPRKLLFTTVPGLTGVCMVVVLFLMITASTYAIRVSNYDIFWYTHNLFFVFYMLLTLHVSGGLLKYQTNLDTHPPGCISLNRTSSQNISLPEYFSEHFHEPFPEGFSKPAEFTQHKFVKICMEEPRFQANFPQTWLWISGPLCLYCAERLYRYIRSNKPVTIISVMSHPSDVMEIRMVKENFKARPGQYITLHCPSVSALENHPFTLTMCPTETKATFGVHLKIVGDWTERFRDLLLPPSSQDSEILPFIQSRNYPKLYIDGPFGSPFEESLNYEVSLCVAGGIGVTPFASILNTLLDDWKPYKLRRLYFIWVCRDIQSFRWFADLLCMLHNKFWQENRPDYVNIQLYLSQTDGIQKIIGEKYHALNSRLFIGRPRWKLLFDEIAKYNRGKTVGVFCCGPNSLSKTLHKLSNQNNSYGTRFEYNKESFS
UniProt Q96PH1, 1-719 isoform 4: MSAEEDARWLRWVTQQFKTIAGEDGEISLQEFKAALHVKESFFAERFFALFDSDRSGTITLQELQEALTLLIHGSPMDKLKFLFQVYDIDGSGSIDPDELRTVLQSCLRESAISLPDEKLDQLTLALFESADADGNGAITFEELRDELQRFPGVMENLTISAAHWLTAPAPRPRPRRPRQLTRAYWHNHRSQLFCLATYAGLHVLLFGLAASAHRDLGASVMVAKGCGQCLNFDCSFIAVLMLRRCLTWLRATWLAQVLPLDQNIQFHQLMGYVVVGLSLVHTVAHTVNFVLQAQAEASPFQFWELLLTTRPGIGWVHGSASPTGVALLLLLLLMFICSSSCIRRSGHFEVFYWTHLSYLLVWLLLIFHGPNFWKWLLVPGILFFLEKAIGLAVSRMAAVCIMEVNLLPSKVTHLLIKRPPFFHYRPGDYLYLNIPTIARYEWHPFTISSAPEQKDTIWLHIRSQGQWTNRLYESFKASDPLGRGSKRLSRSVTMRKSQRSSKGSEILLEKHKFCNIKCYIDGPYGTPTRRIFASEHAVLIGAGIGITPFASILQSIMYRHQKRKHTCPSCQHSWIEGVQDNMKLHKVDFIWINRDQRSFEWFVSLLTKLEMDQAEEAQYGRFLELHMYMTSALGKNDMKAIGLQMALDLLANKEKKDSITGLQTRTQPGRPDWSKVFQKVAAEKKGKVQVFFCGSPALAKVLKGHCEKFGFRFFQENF
UniProt P04757, 26-499 limits assumed: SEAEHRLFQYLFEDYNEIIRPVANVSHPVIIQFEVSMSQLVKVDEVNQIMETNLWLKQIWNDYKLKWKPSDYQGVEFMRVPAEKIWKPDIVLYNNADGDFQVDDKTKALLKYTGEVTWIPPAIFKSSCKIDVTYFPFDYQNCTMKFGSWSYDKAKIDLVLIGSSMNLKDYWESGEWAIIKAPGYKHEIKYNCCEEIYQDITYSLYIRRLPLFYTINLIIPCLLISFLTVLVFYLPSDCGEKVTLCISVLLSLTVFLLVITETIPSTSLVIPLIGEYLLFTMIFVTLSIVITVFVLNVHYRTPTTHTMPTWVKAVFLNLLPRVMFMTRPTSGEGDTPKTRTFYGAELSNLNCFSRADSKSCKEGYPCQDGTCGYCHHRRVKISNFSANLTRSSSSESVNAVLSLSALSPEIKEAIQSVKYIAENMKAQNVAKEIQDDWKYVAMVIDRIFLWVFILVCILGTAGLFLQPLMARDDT
UniProt P04757, whole entry, looked up: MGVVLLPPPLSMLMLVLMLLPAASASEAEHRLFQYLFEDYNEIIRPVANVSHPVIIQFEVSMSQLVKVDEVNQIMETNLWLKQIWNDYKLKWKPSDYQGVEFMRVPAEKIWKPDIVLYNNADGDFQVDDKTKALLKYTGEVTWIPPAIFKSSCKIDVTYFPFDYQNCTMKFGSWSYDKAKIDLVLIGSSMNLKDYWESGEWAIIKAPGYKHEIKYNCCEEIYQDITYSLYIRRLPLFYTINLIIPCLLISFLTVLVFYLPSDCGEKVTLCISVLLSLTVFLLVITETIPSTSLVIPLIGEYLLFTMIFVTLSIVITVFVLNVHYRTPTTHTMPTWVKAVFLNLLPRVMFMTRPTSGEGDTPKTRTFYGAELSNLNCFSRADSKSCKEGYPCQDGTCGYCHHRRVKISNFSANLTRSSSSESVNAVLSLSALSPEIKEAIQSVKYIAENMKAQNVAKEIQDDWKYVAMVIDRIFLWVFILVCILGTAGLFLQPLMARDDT
UniProt P12390, 25-500 limits assumed: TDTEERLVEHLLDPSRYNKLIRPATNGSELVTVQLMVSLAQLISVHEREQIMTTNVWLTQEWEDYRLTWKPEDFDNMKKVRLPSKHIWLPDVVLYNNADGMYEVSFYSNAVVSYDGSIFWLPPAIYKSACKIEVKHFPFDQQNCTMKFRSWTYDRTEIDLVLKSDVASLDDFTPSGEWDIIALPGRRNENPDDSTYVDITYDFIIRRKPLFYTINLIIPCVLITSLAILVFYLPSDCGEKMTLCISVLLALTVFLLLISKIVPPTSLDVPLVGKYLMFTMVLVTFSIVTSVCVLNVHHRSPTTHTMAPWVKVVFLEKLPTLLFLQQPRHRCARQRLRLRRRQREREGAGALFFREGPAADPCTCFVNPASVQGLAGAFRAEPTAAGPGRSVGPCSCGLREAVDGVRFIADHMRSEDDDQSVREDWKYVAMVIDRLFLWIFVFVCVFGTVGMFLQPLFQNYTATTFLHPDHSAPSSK
UniProt P12390, whole entry, looked up: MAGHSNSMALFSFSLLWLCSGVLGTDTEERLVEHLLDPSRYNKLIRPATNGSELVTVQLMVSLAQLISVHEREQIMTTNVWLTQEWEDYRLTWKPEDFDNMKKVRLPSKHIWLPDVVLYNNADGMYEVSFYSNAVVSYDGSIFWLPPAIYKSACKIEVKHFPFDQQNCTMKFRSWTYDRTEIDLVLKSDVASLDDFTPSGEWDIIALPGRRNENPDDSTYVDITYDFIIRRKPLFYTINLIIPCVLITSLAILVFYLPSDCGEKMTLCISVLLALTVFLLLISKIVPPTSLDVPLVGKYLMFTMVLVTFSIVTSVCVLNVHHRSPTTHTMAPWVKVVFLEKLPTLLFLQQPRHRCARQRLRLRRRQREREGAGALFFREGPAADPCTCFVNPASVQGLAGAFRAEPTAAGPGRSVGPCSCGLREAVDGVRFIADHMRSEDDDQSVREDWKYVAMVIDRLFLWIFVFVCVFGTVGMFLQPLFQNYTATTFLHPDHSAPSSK
UniProt Q9X9I8, 1-434: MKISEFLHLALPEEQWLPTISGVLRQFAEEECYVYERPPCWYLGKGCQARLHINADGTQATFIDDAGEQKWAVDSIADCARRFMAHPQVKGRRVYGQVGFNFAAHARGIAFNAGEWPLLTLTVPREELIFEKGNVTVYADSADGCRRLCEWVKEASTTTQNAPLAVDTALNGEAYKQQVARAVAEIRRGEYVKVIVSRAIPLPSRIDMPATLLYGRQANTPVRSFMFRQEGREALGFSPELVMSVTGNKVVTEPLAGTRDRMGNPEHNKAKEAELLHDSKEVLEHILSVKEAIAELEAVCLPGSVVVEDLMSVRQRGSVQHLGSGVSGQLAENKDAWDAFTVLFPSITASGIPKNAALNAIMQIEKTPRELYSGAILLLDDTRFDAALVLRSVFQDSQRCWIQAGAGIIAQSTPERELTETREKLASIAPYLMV
UniProt H0W3H1, 1-470: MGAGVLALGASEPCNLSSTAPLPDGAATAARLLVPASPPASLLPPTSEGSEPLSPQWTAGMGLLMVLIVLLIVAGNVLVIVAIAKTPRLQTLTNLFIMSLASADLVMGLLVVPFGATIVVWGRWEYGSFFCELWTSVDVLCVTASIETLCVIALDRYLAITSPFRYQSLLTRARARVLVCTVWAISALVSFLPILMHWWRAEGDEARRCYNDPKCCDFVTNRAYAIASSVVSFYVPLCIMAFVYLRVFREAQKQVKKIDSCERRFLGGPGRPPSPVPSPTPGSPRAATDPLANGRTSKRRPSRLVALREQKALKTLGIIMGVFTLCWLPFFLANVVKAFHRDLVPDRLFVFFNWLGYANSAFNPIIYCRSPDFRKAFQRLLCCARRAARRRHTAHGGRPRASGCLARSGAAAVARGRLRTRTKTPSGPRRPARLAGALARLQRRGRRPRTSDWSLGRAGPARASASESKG
UniProt Q9NRD9, whole entry, looked up: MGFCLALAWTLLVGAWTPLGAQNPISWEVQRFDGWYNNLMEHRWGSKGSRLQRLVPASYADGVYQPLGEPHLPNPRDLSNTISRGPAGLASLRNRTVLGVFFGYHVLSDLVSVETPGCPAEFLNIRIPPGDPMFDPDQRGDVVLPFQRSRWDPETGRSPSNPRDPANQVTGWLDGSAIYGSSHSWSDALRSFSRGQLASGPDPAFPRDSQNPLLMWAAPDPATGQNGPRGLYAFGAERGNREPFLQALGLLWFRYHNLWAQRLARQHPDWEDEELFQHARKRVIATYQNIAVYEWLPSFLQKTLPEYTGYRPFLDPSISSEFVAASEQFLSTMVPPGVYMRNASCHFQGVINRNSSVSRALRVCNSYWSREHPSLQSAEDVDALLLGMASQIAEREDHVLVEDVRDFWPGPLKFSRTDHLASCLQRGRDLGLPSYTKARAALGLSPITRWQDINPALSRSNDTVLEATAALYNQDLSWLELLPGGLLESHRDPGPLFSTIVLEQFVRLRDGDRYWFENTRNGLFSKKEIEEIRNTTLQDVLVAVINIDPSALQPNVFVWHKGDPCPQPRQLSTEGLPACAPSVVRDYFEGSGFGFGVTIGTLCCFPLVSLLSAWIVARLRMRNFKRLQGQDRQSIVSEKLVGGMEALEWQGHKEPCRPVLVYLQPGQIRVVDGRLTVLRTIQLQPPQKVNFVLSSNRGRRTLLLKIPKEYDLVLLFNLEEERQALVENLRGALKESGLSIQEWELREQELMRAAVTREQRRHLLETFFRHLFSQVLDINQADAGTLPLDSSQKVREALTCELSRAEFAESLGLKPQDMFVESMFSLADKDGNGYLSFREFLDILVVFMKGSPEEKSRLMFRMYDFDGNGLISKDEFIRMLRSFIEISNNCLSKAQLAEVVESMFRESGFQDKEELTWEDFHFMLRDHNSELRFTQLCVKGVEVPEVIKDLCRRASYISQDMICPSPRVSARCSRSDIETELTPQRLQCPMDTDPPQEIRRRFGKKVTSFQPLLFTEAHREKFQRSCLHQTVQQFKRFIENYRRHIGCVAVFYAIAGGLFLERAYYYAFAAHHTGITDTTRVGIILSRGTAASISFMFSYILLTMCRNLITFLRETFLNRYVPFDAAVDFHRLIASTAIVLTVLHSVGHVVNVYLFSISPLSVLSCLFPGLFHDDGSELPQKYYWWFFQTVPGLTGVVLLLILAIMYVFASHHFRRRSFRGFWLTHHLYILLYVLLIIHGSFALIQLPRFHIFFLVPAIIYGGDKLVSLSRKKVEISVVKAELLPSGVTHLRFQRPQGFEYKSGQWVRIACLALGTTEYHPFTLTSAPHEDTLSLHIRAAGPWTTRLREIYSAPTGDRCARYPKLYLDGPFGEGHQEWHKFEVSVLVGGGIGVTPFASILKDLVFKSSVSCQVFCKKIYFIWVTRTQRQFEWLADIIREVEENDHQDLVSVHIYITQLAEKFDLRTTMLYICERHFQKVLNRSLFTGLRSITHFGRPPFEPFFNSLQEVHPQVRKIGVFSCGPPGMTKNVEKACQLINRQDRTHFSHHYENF
UniProt P9WGR1, whole entry: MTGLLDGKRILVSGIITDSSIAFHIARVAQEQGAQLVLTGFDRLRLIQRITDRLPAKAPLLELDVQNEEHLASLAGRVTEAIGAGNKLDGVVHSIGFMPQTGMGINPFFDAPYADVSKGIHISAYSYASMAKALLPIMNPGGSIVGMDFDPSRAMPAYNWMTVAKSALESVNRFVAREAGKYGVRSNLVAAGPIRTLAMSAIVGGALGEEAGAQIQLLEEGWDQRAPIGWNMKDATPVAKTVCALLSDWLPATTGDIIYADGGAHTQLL
UniProt Q51507, whole entry: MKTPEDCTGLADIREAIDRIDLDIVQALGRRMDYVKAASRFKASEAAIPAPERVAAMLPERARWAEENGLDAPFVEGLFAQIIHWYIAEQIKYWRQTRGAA
UniProt P41595, whole entry: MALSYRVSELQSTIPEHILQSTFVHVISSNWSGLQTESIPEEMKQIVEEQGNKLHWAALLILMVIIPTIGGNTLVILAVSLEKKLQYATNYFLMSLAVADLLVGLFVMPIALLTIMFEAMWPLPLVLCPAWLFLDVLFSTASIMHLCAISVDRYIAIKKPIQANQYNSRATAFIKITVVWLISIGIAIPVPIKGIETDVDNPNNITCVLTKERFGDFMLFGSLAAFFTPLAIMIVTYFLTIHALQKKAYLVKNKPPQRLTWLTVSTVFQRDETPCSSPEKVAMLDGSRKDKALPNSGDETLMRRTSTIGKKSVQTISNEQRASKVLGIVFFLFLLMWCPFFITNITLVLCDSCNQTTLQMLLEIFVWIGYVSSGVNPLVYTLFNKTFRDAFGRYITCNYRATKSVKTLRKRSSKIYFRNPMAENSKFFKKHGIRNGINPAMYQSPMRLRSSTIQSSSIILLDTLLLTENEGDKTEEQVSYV

Substance	target or system	assay	test system	conditions	how to read	endpoint	result
CCN1CCN(Cc2ccc(NC(=O)c3ccc(C)c(/C=C/c4cnc5[nH]ccc5c4OC)c3)cc2C(F)(F)F)CC1	TFG-NTRK1 fusion	kinase-CDC37 interaction, cell-based kinome screen	–	5 µM	relative to: vehicle	log2 fold change	-0.687
Cc1cccc2nc(Sc3ncnc4c3nnn4Cc3ccccc3)oc12	NOX4	enzyme activity, inhibitor, Amplex Red	cell-free membranes	–	–	IC50	> 100000 nM
CC[C@](O)([C@H]1C[C@@]23C=C[C@]1(OC)[C@@H]1Oc4c(O)ccc5c4[C@@]12CCN(CC1CC1)[C@@H]3C5)C(C)(C)C	Delta-type opioid receptor (OPRD1, Homo sapiens, UniProt P41143)	binding, radioligand displacement	CHO	with: [3H]DPDPE	–	Ki	1.2 ± 0.16 nM
Clc1ccc2nc(Sc3ncnc4c3nnn4Cc3ccccc3)oc2c1	CYBB	enzyme activity, inhibitor, MCLA chemiluminescence	cell-free membranes	–	–	IC50	> 100000 nM
N=C(N)NCCC[C@@H]1NC(=O)[C@@H](NC(=O)CNC(=O)[C@@H]2CCCN2C(=O)[C@@H](N)CCC(N)=O)CSSC[C@@H](C(N)=O)NC(=O)[C@H](Cc2c[nH]c3ccccc23)NC(=O)[C@H](CCCNC(=N)N)NC(=O)[C@H](CO)NC(=O)[C@H](Cc2c[nH]c3ccccc23)NC(=O)[C@H](Cc2c[nH]c3ccccc23)NC1=O	Neuronal acetylcholine receptor; alpha4/beta4 (Homo sapiens, UniProt P30926+P43681)	ion current, antagonist, two-electrode voltage clamp	Xenopus oocytes	with: ACh 6 µM	–	IC50	2100 nM
CCCCCCC1c2ccc(O)cc2Oc2cc(O)ccc21	Pseudomonas aeruginosa	–	MDR clinical isolate	–	–	MIC	> 373 µg/mL
Cc1ccc2nc(Sc3ncnc4c3nnn4Cc3ccccc3)oc2c1	NOX5	enzyme activity, inhibitor, Amplex Red	cell-free membranes	–	–	IC50	1200 ± 100 nM
CC(C)C[C@@H]1NC(=O)[C@H](CCC(=O)O)NC(=O)[C@@H]2CCCN2C(=O)[C@H](Cc2c[nH]cn2)NC(=O)[C@H](CC(N)=O)NC(=O)[C@H](C(C)C)NC(=O)[C@H]([C@@H](C)O)NC(=O)[C@@H]2CSSC[C@H](NC(=O)CN)C(=O)N[C@@H](CSSC[C@@H](C(N)=O)NC1=O)C(=O)N[C@@H](CO)C(=O)N[C@@H](Cc1c[nH]cn1)C(=O)N1CCC[C@H]1C(=O)N[C@@H](C)C(=O)N2	Neuronal acetylcholine receptor; alpha3/beta2	ion current, antagonist, two-electrode voltage clamp	Xenopus laevis oocytes	with: 100 µM acetylcholine	–	IC50	7.1 nM
CN(C(=O)Cc1ccc(Cl)c(Cl)c1)C1CCCCC1N1CCCC1 (centres unmarked)	PKD2L1 (Homo sapiens, UniProt Q9P0L9, F514A)	inhibitor	–	–	–	IC50	1000 nM
methyl arachidonyl fluorophosphonate	exoU (Pseudomonas aeruginosa, UniProt O34208)	phospholipase activity, irreversible inhibitor, PED6 fluorescence	–	room temperature, with: SOD1	–	IC50	13.8 ± 1.1 nM
O=c1oc2cc(Br)c(O)c(Br)c2s1	Salicylate synthetase, Irp9	salicylate production, inhibitor	–	pH 7.5, 25 °C, with: chorismate 2 µM	–	IC50	60000 ± 20000 nM
CC(C)NCC(O)COc1ccc(CC(N)=O)cc1 (centres unmarked)	Beta-1 adrenergic receptor, high-affinity state (Cavia porcellus, UniProt H0W3H1)	binding	lung membranes	high-affinity site, with: [3H]dihydroalprenolol 8 nM	–	IC50	200 nM
Brc1ccc2nc(Sc3ncnc4c3nnn4Cc3ccccc3)oc2c1	DUOX1 (Homo sapiens, UniProt Q9NRD9)	enzyme activity, inhibitor, Amplex Red	cell-free membranes	–	–	IC50	> 15000 nM
CC(C)Cc1cc(O)c(-c2cccc(Cl)c2)c(=O)[nH]1	Enoyl-[acyl-carrier-protein] reductase [NADH] (inhA, Mycobacterium tuberculosis, UniProt P9WGR1)	enzyme activity, inhibitor	–	–	–	IC50	4300 ± 500 nM
CSc1nc(Cl)cc(Sc2nnc(-c3cc(C(F)(F)F)cc(C(F)(F)F)c3)[nH]2)n1	Pseudomonas aeruginosa	–	MDR clinical isolate	with: NAB7061 4 µg/mL	–	MIC	5.9 µg/mL (≈ 12.5 µM)
O=C1N[C@@H]2C(=C[C@H](O)[C@@H](O)[C@H]2O)c2cc3c(c(O)c21)OCO3	Epidermal growth factor receptor (EGFR, Homo sapiens, UniProt P00533, T790M/L858R)	kinase activity, inhibitor, ADP-Glo	–	–	–	IC50	~50 nM
CC(C)c1ccc2nc(Sc3ncnc4c3nnn4Cc3ccccc3)oc2c1	NOX4	enzyme activity, inhibitor, Amplex Red	cell-free membranes	–	–	IC50	> 100000 nM
COc1cc2oc3ccc(O)cc3c(=O)c2c(OC)c1OC	Acetylcholinesterase (ACHE, Homo sapiens, UniProt P22303)	enzyme activity, inhibitor	–	–	–	IC50	13900 ± 1720 nM
C=C(C)[C@@H]1[C@H]2OC(=O)[C@@H]1[C@]1(O)C[C@H]3O[C@]34C(=O)O[C@H]2[C@]14C	GABA-A receptor; alpha-2/beta-3/gamma-2 (Homo sapiens, UniProt P18507+P28472+P47869)	GABA-evoked current, inhibitor, whole-cell patch clamp	L929	3 min preincubation, with: 100 µM GABA (EC90)	–	IC50	6800 nM

Substance	target or system	assay	test system	conditions	how to read	endpoint	result
COc1ccc(C(=O)NC(Sc2ccc(Cl)cc2)C(Cl)(Cl)Cl)cc1 (centres unmarked)	TRPA1	MO-induced calcium influx, antagonist, FLIPR calcium	–	3 min preincubation, with: 30 µM mustard oil	–	IC50	2230 ± 580 nM
COC(=O)Oc1c([N+](=O)[O-])cc2oc(=O)sc2c1[N+](=O)[O-]	Salicylate synthetase, Irp9	salicylate production, inhibitor	–	pH 7.5, 25 °C, with: chorismate 2 µM	–	IC50	25000 ± 3000 nM
CCCC[C@@H]1NC(=O)[C@H](CO)NC(=O)[C@@H]2CSSC[C@H](NC(=O)CN)C(=O)N[C@@H](CSSC[C@@H](C(N)=O)NC(=O)[C@H](CC(C)C)NC(=O)[C@H](CCC(=O)O)NC(=O)[C@@H]3CCCN3C(=O)[C@H](Cc3c[nH]cn3)NC(=O)[C@H](CC(N)=O)NC1=O)C(=O)N[C@@H](CO)C(=O)N[C@@H](Cc1c[nH]cn1)C(=O)N1CCC[C@H]1C(=O)N[C@@H](C)C(=O)N2	Neuronal acetylcholine receptor; alpha3/beta2	ion current, antagonist, two-electrode voltage clamp	Xenopus laevis oocytes	with: 100 µM acetylcholine	–	IC50	9.29 nM
Cn1cnc2ncn(Cc3nc(CCc4ccc(Cl)cc4)no3)c(=O)c21	TRPA1	calcium influx, antagonist, FlexStation calcium	HEK-293T transfected	with: CS gas at EC50	–	IC50	260 nM
CC(C)C[C@@H]1NC(=O)[C@H](CCC(=O)O)NC(=O)[C@@H]2CCCN2C(=O)[C@H](Cc2c[nH]cn2)NC(=O)[C@H](CC(=O)O)NC(=O)[C@H](CC(C)C)NC(=O)[C@H](Cc2c[nH]cn2)NC(=O)[C@@H]2CSSC[C@H](NC(=O)CN)C(=O)N[C@@H](CSSC[C@@H](C(N)=O)NC1=O)C(=O)N[C@@H](CO)C(=O)N[C@@H](Cc1c[nH]cn1)C(=O)N1CCC[C@H]1C(=O)N[C@@H](C)C(=O)N2	Chrna3/Chrnb2/Chrna6, with beta3 subunit (Rattus norvegicus, UniProt P04757+P12390+P43143)	ion current, antagonist, two-electrode voltage clamp	Xenopus laevis oocytes	with: 100 µM acetylcholine	–	IC50	19.9 nM
O=[N+]([O-])c1cc(S(=O)(=O)c2cc([N+](=O)[O-])c(O)c([N+](=O)[O-])c2)cc([N+](=O)[O-])c1O	pchB (Pseudomonas aeruginosa, UniProt Q51507)	pyruvate production, inhibitor, absorbance	–	25 °C, with: isochorismate 10 µM	–	IC50	70 ± 10 nM
CCC(C)C1NC(=O)/C(=C(/C)O)C1=O (centres unmarked)	AHA2 (Arabidopsis thaliana, UniProt P19456)	ATP hydrolysis, inhibitor	ER-enriched fraction	expressed in Saccharomyces cerevisiae	–	IC50	14300 nM
CCCN1CCN(c2ccc3c(c2)C2CC3CCN2C(=O)OCc2ccccc2)CC1 (centres unmarked)	5-hydroxytryptamine receptor 2B (HTR2B, Homo sapiens, UniProt P41595)	binding, radioligand binding	–	–	–	Ki	868 nM
COC(=O)Oc1c(Cl)cc2oc(=O)sc2c1[N+](=O)[O-]	Salicylate synthetase, Irp9	salicylate production, inhibitor	–	pH 7.5, 25 °C, with: chorismate 2 µM	–	IC50	160000 ± 10000 nM
CC(C)C[C@@H]1NC(=O)[C@H](CCC(=O)O)NC(=O)[C@@H]2CCCN2C(=O)[C@H](Cc2c[nH]cn2)NC(=O)[C@H](CCCCC(=O)O)NC(=O)[C@H](CC(C)C)NC(=O)[C@H](Cc2c[nH]cn2)NC(=O)[C@@H]2CSSC[C@H](NC(=O)CN)C(=O)N[C@@H](CSSC[C@@H](C(N)=O)NC1=O)C(=O)N[C@@H](CO)C(=O)N[C@@H](Cc1c[nH]cn1)C(=O)N1CCC[C@H]1C(=O)N[C@@H](C)C(=O)N2	Neuronal acetylcholine receptor subunit alpha-7 (Chrna7, Rattus norvegicus, UniProt Q05941)	ACh-evoked current, antagonist, two-electrode voltage clamp	Xenopus laevis oocytes	with: ACh 300 µM	–	IC50	31.6 nM
C[Si](C)(C)CCOC(=O)Cc1ccccc1Nc1c(Cl)cccc1Cl	ache	enzyme activity, inhibitor, Ellman	–	–	–	IC50	2660 ± 250 nM
CC(C)C[C@@H]1NC(=O)[C@H](CCC(=O)O)NC(=O)[C@@H]2CCCN2C(=O)[C@H](Cc2c[nH]cn2)NC(=O)[C@H](CC(N)=O)NC(=O)[C@H](CC(C)C)NC(=O)[C@H](CO)NC(=O)[C@@H]2CSSC[C@H](NC(=O)CN)C(=O)N[C@@H](CSSC[C@@H](C(N)=O)NC1=O)C(=O)N[C@@H](CO)C(=O)N[C@@H](Cc1c[nH]cn1)C(=O)N1CCC[C@H]1C(=O)N[C@@H](C)C(=O)N2	Neuronal acetylcholine receptor; alpha3/beta2	ion current, antagonist, two-electrode voltage clamp	Xenopus laevis oocytes	with: 100 µM acetylcholine	–	IC50	10.6 nM
CC#C/C(=N\OC[C@H]1COCCN1)c1ccc2ncnc(Nc3ccc(OCc4cccc(F)c4)c(Cl)c3)c2c1	Serine/threonine-protein kinase D2 (PRKD2, Homo sapiens, UniProt Q9BZL6)	kinase activity	–	10 µM	–	inhibition	9.1%
c1ccc(Cn2nnc3c(Sc4nc5ncccc5o4)ncnc32)cc1	CYBB	enzyme activity, inhibitor, MCLA chemiluminescence	cell-free membranes	–	–	IC50	3400 ± 700 nM
CC(C)C[C@@H]1NC(=O)[C@H](CC(=O)O)NC(=O)[C@@H]2CCCN2C(=O)[C@H](Cc2c[nH]cn2)NC(=O)[C@H](CC(N)=O)NC(=O)[C@H](C(C)C)NC(=O)[C@H](CO)NC(=O)[C@@H]2CSSC[C@H](NC(=O)CN)C(=O)N[C@@H](CSSC[C@@H](C(N)=O)NC1=O)C(=O)N[C@@H](CO)C(=O)N[C@@H](Cc1c[nH]cn1)C(=O)N1CCC[C@H]1C(=O)N[C@@H](C)C(=O)N2	Neuronal acetylcholine receptor; alpha3/beta2	ion current, antagonist, two-electrode voltage clamp	Xenopus laevis oocytes	with: 100 µM acetylcholine	–	IC50	65.1 nM
FC(F)(F)c1ccc2nc(Sc3ncnc4c3nnn4Cc3ccccc3)oc2c1	NOX5	enzyme activity, inhibitor, Amplex Red	cell-free membranes	–	–	IC50	300 ± 100 nM
C=C(C)[C@@H]1[C@H]2OC(=O)[C@@H]1[C@]1(O)C[C@H]3O[C@]34C(=O)O[C@H]2[C@]14C	GABRG2/GABRA2/Gabrb2 (Homo sapiens, UniProt P18507+P47869+P63138)	chloride current, inhibitor, whole-cell voltage clamp	L929	3 min preincubation, with: GABA at EC90	–	IC50	11000 nM
Cc1cccc2oc(Sc3ncnc4c3nnn4Cc3ccccc3)nc12	NOX4	enzyme activity, inhibitor, Amplex Red	cell-free membranes	–	–	IC50	> 100000 nM
COc1ccc2c(c1)c(CC(=O)OCCC(C)(C)C)c(C)n2C(=O)c1ccc(Cl)cc1	ache	enzyme activity, inhibitor, Ellman	–	–	–	IC50	9750 ± 890 nM

Repeated from above:
Substance	target or system	assay	test system	conditions	how to read	endpoint	result
c1ccc(Cn2nnc3c(Sc4nc5ncccc5o4)ncnc32)cc1	CYBB	enzyme activity, inhibitor, MCLA chemiluminescence	cell-free membranes	–	–	IC50	3400 ± 700 nM
CC(C)C[C@@H]1NC(=O)[C@H](CCC(=O)O)NC(=O)[C@@H]2CCCN2C(=O)[C@H](Cc2c[nH]cn2)NC(=O)[C@H](CC(N)=O)NC(=O)[C@H](C(C)C)NC(=O)[C@H]([C@@H](C)O)NC(=O)[C@@H]2CSSC[C@H](NC(=O)CN)C(=O)N[C@@H](CSSC[C@@H](C(N)=O)NC1=O)C(=O)N[C@@H](CO)C(=O)N[C@@H](Cc1c[nH]cn1)C(=O)N1CCC[C@H]1C(=O)N[C@@H](C)C(=O)N2	Neuronal acetylcholine receptor; alpha3/beta2	ion current, antagonist, two-electrode voltage clamp	Xenopus laevis oocytes	with: 100 µM acetylcholine	–	IC50	7.1 nM
